Results pooled from the literature.
rep main protease: Replicase polyprotein 1ab, main protease (rep, Porcine epidemic diarrhea virus, UniProt P0C6Y4)
NT5E: 5'-nucleotidase (NT5E, Homo sapiens, UniProt P21589)
UniProt P21589, sequence (whole entry, looked up): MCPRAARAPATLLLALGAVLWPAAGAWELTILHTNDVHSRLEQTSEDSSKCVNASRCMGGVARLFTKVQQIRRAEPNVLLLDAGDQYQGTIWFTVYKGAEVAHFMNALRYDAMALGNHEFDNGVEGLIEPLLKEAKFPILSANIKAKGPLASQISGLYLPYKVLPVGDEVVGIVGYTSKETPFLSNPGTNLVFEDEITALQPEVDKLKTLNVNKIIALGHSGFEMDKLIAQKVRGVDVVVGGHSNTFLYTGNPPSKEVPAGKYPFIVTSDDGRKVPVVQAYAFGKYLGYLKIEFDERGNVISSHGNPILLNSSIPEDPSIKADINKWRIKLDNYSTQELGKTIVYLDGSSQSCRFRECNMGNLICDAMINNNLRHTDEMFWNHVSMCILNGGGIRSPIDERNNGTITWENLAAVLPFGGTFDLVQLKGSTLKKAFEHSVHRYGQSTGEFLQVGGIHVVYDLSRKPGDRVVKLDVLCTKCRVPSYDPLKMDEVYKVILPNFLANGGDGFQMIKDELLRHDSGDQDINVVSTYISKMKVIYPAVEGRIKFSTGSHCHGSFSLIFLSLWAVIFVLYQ
rep papain-like protease: Replicase polyprotein 1ab, papain-like protease (rep, Porcine epidemic diarrhea virus, UniProt P0C6Y4)
PIP4K2C: Phosphatidylinositol 5-phosphate 4-kinase type-2 gamma (PIP4K2C, Homo sapiens, UniProt Q8TBX8)
UniProt Q8TBX8, sequence (whole entry, looked up): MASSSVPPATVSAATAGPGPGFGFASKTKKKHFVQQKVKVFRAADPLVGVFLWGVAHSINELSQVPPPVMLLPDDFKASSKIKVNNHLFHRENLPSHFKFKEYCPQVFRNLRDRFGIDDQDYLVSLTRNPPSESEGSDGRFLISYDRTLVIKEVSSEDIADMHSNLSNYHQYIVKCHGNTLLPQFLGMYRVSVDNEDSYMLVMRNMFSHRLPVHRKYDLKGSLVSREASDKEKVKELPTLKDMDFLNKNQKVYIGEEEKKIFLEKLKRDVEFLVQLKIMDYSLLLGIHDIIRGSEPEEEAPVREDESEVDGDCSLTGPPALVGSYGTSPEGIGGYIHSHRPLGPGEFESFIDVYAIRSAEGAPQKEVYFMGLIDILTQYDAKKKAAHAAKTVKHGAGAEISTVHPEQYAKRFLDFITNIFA
CDK7 with cyclin H: Cyclin-dependent kinase 7, with cyclin H (CDK7, Homo sapiens, UniProt P50613)
UniProt P50613, sequence (whole entry, looked up): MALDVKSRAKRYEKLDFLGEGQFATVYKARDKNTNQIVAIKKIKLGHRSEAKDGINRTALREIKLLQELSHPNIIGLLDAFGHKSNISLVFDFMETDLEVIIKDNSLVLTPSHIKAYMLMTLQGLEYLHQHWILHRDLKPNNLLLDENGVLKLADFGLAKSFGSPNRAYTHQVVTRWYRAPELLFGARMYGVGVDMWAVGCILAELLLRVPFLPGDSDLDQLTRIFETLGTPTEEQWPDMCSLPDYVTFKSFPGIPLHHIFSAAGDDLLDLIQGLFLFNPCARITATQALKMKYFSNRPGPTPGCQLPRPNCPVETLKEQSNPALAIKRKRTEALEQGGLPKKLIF
AMY2: Pancreatic alpha-amylase (AMY2, Sus scrofa, UniProt P00690)
UniProt P00690, sequence (whole entry, looked up): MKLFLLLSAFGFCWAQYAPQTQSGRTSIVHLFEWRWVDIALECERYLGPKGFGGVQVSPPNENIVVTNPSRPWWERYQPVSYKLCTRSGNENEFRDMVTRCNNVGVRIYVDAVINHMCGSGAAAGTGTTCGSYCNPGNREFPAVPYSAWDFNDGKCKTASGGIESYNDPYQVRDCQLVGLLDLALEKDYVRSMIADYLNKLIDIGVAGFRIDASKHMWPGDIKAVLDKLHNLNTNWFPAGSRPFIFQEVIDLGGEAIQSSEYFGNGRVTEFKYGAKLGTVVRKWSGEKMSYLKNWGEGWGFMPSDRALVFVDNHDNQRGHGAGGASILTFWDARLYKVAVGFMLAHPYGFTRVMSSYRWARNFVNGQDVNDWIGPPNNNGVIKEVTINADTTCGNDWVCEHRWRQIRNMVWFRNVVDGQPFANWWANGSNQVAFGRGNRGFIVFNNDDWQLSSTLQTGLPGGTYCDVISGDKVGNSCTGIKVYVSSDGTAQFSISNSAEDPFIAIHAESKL
MAOB: Amine oxidase [flavin-containing] B (MAOB, Homo sapiens, UniProt P27338)
UniProt P27338, sequence (whole entry, looked up): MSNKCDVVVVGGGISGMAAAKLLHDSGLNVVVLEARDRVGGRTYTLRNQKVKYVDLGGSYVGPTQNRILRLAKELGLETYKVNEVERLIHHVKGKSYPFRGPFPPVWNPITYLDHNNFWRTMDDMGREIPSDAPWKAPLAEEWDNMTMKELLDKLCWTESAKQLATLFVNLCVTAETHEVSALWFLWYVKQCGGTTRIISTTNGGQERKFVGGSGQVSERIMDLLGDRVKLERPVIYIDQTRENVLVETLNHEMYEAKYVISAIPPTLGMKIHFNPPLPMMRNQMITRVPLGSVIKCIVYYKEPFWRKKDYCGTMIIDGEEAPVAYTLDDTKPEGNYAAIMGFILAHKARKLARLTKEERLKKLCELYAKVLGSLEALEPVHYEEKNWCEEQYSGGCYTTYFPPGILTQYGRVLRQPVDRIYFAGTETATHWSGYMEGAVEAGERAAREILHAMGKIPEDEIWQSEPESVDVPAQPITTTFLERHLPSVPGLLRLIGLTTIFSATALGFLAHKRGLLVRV
SLC6A2: Sodium-dependent noradrenaline transporter (SLC6A2, Homo sapiens, UniProt P23975)
UniProt P23975, sequence (whole entry, looked up): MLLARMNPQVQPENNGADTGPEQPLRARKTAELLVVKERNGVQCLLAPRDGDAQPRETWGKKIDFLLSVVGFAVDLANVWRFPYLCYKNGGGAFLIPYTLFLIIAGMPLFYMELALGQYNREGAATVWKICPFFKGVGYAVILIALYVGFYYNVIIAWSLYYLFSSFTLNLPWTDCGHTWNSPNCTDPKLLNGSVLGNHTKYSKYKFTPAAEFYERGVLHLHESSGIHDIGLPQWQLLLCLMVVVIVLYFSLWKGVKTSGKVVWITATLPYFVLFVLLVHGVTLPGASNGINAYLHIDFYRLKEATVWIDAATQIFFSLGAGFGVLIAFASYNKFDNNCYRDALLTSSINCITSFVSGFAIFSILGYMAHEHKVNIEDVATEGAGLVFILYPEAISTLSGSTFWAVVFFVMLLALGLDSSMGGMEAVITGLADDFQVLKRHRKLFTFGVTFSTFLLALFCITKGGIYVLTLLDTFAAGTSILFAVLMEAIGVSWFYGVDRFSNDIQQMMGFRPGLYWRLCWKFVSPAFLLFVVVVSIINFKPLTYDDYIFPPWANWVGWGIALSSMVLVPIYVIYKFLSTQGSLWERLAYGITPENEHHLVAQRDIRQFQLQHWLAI
SLC22A11: Solute carrier family 22 member 11 (SLC22A11, Homo sapiens, UniProt Q9NSA0)
UniProt Q9NSA0, sequence (whole entry, looked up): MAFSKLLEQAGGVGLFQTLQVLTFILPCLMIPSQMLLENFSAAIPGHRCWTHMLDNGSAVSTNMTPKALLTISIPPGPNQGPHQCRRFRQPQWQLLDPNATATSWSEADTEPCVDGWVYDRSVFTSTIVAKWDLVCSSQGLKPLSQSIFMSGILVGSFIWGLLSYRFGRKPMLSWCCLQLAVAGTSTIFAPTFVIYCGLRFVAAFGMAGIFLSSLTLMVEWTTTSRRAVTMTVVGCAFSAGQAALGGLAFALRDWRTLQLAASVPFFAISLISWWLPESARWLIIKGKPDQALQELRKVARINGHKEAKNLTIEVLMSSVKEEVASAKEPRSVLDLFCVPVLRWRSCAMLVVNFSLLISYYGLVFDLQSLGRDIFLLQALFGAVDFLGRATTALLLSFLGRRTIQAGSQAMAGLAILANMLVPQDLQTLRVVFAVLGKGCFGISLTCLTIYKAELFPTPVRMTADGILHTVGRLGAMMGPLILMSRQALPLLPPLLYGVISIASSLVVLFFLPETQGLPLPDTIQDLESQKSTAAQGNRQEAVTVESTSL
UniProt O42275, sequence (whole entry, looked up): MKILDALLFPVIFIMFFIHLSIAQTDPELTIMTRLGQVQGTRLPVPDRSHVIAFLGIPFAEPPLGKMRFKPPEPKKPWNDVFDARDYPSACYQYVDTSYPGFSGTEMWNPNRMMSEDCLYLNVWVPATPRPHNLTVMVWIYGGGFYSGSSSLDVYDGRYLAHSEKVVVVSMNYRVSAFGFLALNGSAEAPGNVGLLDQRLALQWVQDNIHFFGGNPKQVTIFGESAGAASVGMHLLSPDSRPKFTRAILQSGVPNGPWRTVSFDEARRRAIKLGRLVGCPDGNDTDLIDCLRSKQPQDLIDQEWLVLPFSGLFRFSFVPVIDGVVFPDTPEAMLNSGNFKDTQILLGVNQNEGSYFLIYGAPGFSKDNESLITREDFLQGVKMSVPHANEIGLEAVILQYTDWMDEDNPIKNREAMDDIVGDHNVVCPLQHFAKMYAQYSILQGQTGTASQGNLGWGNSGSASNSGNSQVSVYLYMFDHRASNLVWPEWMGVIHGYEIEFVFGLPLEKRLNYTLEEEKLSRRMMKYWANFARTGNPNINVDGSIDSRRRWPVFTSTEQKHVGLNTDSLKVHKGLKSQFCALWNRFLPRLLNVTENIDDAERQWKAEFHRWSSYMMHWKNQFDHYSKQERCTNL
UniProt Q9HAZ1, sequence (whole entry, looked up): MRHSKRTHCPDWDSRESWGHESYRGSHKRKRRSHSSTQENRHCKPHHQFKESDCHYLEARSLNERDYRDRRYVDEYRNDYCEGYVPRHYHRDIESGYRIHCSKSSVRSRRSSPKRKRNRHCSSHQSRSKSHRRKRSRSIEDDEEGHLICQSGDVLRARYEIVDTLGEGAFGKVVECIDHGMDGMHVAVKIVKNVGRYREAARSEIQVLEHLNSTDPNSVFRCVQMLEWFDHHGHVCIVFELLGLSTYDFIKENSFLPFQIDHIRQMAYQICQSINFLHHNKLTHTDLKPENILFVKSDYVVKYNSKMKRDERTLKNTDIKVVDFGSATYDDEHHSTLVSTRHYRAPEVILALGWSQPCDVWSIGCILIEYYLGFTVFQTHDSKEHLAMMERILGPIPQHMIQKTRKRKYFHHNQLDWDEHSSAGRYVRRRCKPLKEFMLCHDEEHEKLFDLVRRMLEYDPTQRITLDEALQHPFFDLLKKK
UniProt Q00535, sequence (whole entry, looked up): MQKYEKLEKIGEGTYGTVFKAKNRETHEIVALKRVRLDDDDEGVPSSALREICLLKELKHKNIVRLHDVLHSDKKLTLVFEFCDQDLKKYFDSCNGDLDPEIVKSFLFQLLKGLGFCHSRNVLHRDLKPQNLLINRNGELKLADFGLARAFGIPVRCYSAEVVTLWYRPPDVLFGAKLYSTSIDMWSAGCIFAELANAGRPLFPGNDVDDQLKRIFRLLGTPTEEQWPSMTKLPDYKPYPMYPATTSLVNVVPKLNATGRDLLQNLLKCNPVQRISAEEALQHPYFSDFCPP

For COc1cc(CNC(=O)c2ccc(OC(F)(F)F)cc2)cc(Br)c1OC, the inhibition was 25.9% (rep main protease; enzyme activity, inhibitor, FRET; 10 µM).
COc1cc(-c2cncc3c2CN(C)Cc2cc(N4CCNCC4)ccc2-3)cc(OC)c1OC has a remaining activity of 97% (Serine/threonine-protein kinase TAO3 (TAOK3, Homo sapiens, UniProt Q9H2K8); enzyme activity, inhibitor; 1 µM).
With Cc1cccc(NC(=O)CSc2nc(-c3ccccc3)cc(C)c2C#N)n1 the inhibition was 58% (NT5E; enzyme activity, inhibitor; 10 µM).
O=C(NCc1cc(O)c(O)c(Br)c1)c1cccs1 gave an inhibition of 13.2% (rep papain-like protease; enzyme activity, inhibitor, FRET; 10 µM).
With N#Cc1c(C(F)(F)F)cc(-c2ccccc2)nc1SCC(=O)Nc1ccon1 the inhibition was 17% (NT5E; enzyme activity, inhibitor; 10 µM).
With O=C(NCc1ccc(O)c(O)c1)c1ccc(Br)cc1 the inhibition was 34.1% (rep main protease; enzyme activity, inhibitor, FRET; 10 µM).
For CC[C@H](C)[C@H](NC(=O)[C@H](CCC(N)=O)NC(=O)[C@H](CC(C)C)NC(=O)[C@H](CCSC)NC(=O)[C@H](CCCCN)NC(=O)[C@H](CO)NC(=O)[C@H](CO)NC(=O)[C@H](CCSC)NC(=O)[C@H](CC(C)C)NC(=O)[C@H](CC(N)=O)NC(=O)[C@@H](NC(=O)[C@@H](NC(=O)[C@H](CO)NC(=O)[C@H](CC(C)C)NC(=O)[C@H](CS)NC(=O)[C@H](CCCNC(=N)N)NC(=O)[C@H](CC(=O)O)NC(=O)[C@H](Cc1c[nH]c2ccccc12)NC(=O)[C@H](Cc1ccccc1)NC(=O)[C@H](C)NC(=O)[C@H](CCC(=O)O)NC(=O)[C@@H](N)CCCCN)C(C)C)[C@@H](C)CC)C(=O)N[C@@H](CC(N)=O)C(=O)N[C@@H](C)C(=O)O, the inhibition was 11% (Mitogen-activated protein kinase 3 (MAPK3, Homo sapiens, UniProt P27361); enzyme activity, inhibitor, radiometric; 250 µM).
The inhibition of CCCCC(=O)Nc1ncc(-c2ccc3ncn(CCC)c(=O)c3c2)cn1 is reported as 94.9% (PIP4K2C; binding, competition with immobilised ligand; 0.5 µM).
O=C(NO)c1cc(F)cc(OS(=O)(=O)Oc2ccccc2)c1 gave an inhibition of 6% (Histone deacetylase 2 (HDAC2, Homo sapiens, UniProt Q92769); enzyme activity, inhibitor, fluorescence; 10 µM).
The inhibition of CCCCC(=O)Nc1cc(C)c(-c2ccc3ncn(CCC)c(=O)c3c2)cn1 is reported as 38% (PIP4K2C; binding, competition with immobilised ligand; 0.5 µM).
For CO[C@H]1/C=C/O[C@@]2(C)Oc3c(C)c(O)c4c(O)c(cc(O)c4c3C2=O)NC(=O)/C(C)=C\C=C\[C@H](C)[C@H](O)[C@@H](C)[C@@H](O)[C@@H](C)[C@H](OC(C)=O)[C@@H]1C, the inhibition was 13.2% (CDK7 with cyclin H; enzyme activity, inhibitor, ADP detection; 10 µM).
The inhibition of CC[C@H](C)[C@H](NC(=O)[C@H](CCC(N)=O)NC(=O)[C@@H](NC(=O)[C@H](CCSC)NC(=O)[C@H](CCCCN)NC(=O)[C@H](CO)NC(=O)[C@@H](NC(=O)[C@H](CCSC)NC(=O)[C@H](CC(C)C)NC(=O)[C@H](CC(N)=O)NC(=O)[C@@H](NC(=O)[C@@H](NC(=O)[C@H](CO)NC(=O)[C@H](CC(C)C)NC(=O)[C@H](C)NC(=O)[C@H](CCCNC(=N)N)NC(=O)[C@H](CCC(=O)O)NC(=O)[C@H](Cc1ccc(O)cc1)NC(=O)[C@H](Cc1ccccc1)NC(=O)[C@H](C)NC(=O)[C@H](CC(N)=O)NC(=O)[C@@H](N)CCCCN)[C@@H](C)CC)[C@@H](C)CC)[C@@H](C)O)C(C)C)C(=O)N[C@@H](CC(N)=O)C(=O)N[C@H](C(=O)O)C(C)C is reported as 3% (Cyclin-dependent kinase 5, with p35 (CDK5, Homo sapiens, UniProt Q00535); enzyme activity, inhibitor, radiometric; 1 µM).
For Cc1cc(-c2ccccc2)nc(SCC(=O)Nc2cccnc2)c1C#N, the inhibition was 35% (NT5E; enzyme activity, inhibitor; 10 µM).
CNc1ncc2c(/C=C/C(=O)N3CCC(OC)CC3)nn(Cc3cccc(C(F)(F)F)c3)c2n1 has a remaining activity of 95% (Serine/threonine-protein kinase greatwall (MASTL, Homo sapiens, UniProt Q96GX5); enzyme activity, inhibitor, radiometric; 1 µM).
For CCOC(=O)c1ccc(NC(=O)CSc2nc(-c3ccccc3)cc(C(F)(F)F)c2C#N)cc1, the inhibition was 10% (NT5E; enzyme activity, inhibitor; 10 µM).
For Cc1cc(NS(=O)(=O)c2ccc(N=NN(O)c3ccccc3)cc2)no1, the inhibition was 63.2% (AMY2; enzyme activity, inhibitor; 240 µg/mL).
The inhibition of O=C(NCc1cc(O)c(O)c(Br)c1)c1cccc2ccccc12 is reported as 87.5% (rep main protease; enzyme activity, inhibitor, FRET; 10 µM).
CCN(O)N=Nc1ccc(S(=O)(=O)Nc2cc(C)on2)cc1 has an inhibition of 52.6% (AMY2; enzyme activity, inhibitor; 180 µg/mL).
CN1CC(Oc2cnc(C#N)cc2-c2ccn3nc(NC(=O)C4CC4)cc3c2)C1 gave an inhibition of -5% (Dual specificity protein kinase CLK4 (CLK4, Homo sapiens, UniProt Q9HAZ1); enzyme activity, inhibitor; 1 µM).
For Cc1noc(NS(=O)(=O)c2ccc(N=NN(C)O)cc2)c1C, the inhibition was 63.2% (AMY2; enzyme activity, inhibitor; 240 µg/mL).
For O=C(NCc1cc(O)c(O)c(Br)c1)c1nccs1, the inhibition was 111% (rep main protease; enzyme activity, inhibitor, FRET; 10 µM).
With NC/C(=C\F)COc1cccc(Cn2c(=S)[nH]c(=O)c3[nH]cnc32)c1 the inhibition was 3.22% (Diamine oxidase [copper-containing] (AOC1, Homo sapiens, UniProt P19801); enzyme activity, inhibitor; 37 nM).
For O=C(Nc1ccc(Br)cc1)c1ccc2c(c1)C(=O)NC2=O, the inhibition was 15.7% (MAOB; enzyme activity, inhibitor; 1 µM).
The inhibition of N#C[C@@]12C[C@@H]1[C@@H](n1cnc3c(Nc4ccccc4)nc(C#Cc4ccc(Cl)s4)nc31)[C@H](O)[C@@H]2O is reported as 63% (SLC6A2; ligand displacement, radioligand; 10 µM).
With CCCCC(=O)Nc1ccc(-c2cnc3ccn(CCC)c(=O)c3c2)cn1 the inhibition was 25% (PIP4K2C; binding, competition with immobilised ligand; 0.5 µM).
For Cc1cc(C)c(C#N)c(SCC(=O)NCc2ccccc2)n1, the inhibition was -16% (NT5E; enzyme activity, inhibitor; 10 µM).
Cc1cc(=O)c2c(O[C@@H]3OC(CO)[C@@H](O)[C@H](O)C3O)cc(O)cc2o1 (some centres unmarked) gave an inhibition of 18.9% (CDK7 with cyclin H; enzyme activity, inhibitor, ADP detection; 10 µM).
For Cc1cc(NS(=O)(=O)c2ccc(N=NN(C)O)cc2)no1, the inhibition was 57.9% (AMY2; enzyme activity, inhibitor; 240 µg/mL).
For COc1ccc(-c2cc(=O)c3c(O)c(OC)c(OC)c(OC)c3o2)cc1, the inhibition was 43.4% (CDK7 with cyclin H; enzyme activity, inhibitor, ADP detection; 10 µM).
CC1(C)[C@@H](OC(=O)CCC(=O)O)CC[C@]2(C)[C@H]3C(=O)C=C4[C@@H]5C[C@@](C)(C(=O)O)CC[C@]5(C)CC[C@@]4(C)[C@]3(C)CC[C@@H]12 has an inhibition of 90.5% (SLC22A11; transporter uptake, inhibitor; 25 µM).
The inhibition of COc1ccc(Cl)cc1-c1cc(=O)[nH]c(=S)n1CC(N)=O is reported as 97% (Myeloperoxidase (MPO, Homo sapiens, UniProt P05164); enzyme activity, inhibitor, fluorescence; 3.333 µM).
The inhibition of COc1cc2c(cc1OC)C(=O)N(CC1CCN(Cc3ccc(F)nc3)CC1)C2 is reported as -5.38% (Acetylcholinesterase (ache, Electrophorus electricus, UniProt O42275); enzyme activity, inhibitor; 1 µM).
The inhibition of O=C(NCc1cc(O)c(O)c(Br)c1)N1CCCC1 is reported as 103% (rep main protease; enzyme activity, inhibitor, FRET; 10 µM).
CCCCC(=O)Nc1ccc(-c2ccc3ncn(CCCC)c(=O)c3c2)cn1 gave an inhibition of 99.4% (PIP4K2C; binding; 0.5 µM).
COCCOCCOCCNC(=O)CSc1nc(C)cc(C)c1C#N gave an inhibition of 14% (NT5E; enzyme activity, inhibitor; 10 µM).
Cc1cccc(N(O)N=Nc2ccc(S(=O)(=O)Nc3cc(C)on3)cc2)c1 has an inhibition of 68.4% (AMY2; enzyme activity, inhibitor; 300 µg/mL).
Cc1cc(O)c(-c2ccc([C@@H](C)CN(C)C)cc2)c2c1[nH]c(=O)c1sccc12 has an inhibition of -13.4% (Mitogen-activated protein kinase kinase kinase 21 (MAP3K21, Homo sapiens, UniProt Q5TCX8); enzyme activity, inhibitor; 0.1 µM).
CCOC(=O)[C@@]12C[C@@H]1[C@@H](n1ccc3c(NCCCCCCCc4ccccc4)nc(C#Cc4ccccc4)nc31)[C@H](O)[C@@H]2O gave an inhibition of 40% (SLC6A2; ligand displacement, radioligand; 10 µM).
For CCCN(O)N=Nc1ccc(S(=O)(=O)Nc2onc(C)c2C)cc1, the inhibition was 47.4% (AMY2; enzyme activity, inhibitor; 120 µg/mL).
For O=C(NCc1cc(O)c(O)c(Br)c1)c1ccc(Cl)s1, the inhibition was 104% (rep papain-like protease; enzyme activity, inhibitor, FRET; 10 µM).
With CCN(O)N=Nc1ccc(S(=O)(=O)Nc2onc(C)c2C)cc1 the inhibition was 21.1% (AMY2; enzyme activity, inhibitor; 60 µg/mL).
For Cc1ccccc1C(=O)NCc1cc(O)c(O)c(Br)c1, the inhibition was 90.2% (rep main protease; enzyme activity, inhibitor, FRET; 10 µM).
With Cc1noc(NS(=O)(=O)c2ccc(N=NN(O)c3ccccc3)cc2)c1C the inhibition was 26.3% (AMY2; enzyme activity, inhibitor; 60 µg/mL).
With COc1cc(NC(=O)c2ccc3c(c2)C(=O)NC3=O)ccc1Cl the inhibition was 54.4% (MAOB; enzyme activity, inhibitor; 1 µM).
With C=CC(=O)N1CCC(COCC(=O)N2CCN(c3nc(-c4cnc(N)nc4C(F)F)nc(N4CCOC[C@@H]4C)n3)CC2)CC1 the remaining binding was 71% (Serine/threonine-protein kinase RIO1 (RIOK1, Homo sapiens, UniProt Q9BRS2); binding, competition with immobilised ligand; 1 µM).
With Cc1cc(C)c2c(N)c(C(=O)Nc3ccon3)sc2n1 the inhibition was -20% (NT5E; enzyme activity, inhibitor; 10 µM).
O=C1C(CC[S+]([O-])c2ccccc2)C(=O)N(c2ccccc2)N1c1ccccc1 (centres unmarked) gave an inhibition of 97.5% (SLC22A11; transporter uptake, inhibitor; 25 µM).

Excerpt of the above:
The inhibition of COc1cc2c(cc1OC)C(=O)N(CC1CCN(Cc3ccc(F)nc3)CC1)C2 is reported as -5.38% (Acetylcholinesterase (ache, Electrophorus electricus, UniProt O42275); enzyme activity, inhibitor; 1 µM).
Cc1cc(=O)c2c(O[C@@H]3OC(CO)[C@@H](O)[C@H](O)C3O)cc(O)cc2o1 (some centres unmarked) gave an inhibition of 18.9% (CDK7 with cyclin H; enzyme activity, inhibitor, ADP detection; 10 µM).
For O=C(NCc1cc(O)c(O)c(Br)c1)c1nccs1, the inhibition was 111% (rep main protease; enzyme activity, inhibitor, FRET; 10 µM).
CCOC(=O)[C@@]12C[C@@H]1[C@@H](n1ccc3c(NCCCCCCCc4ccccc4)nc(C#Cc4ccccc4)nc31)[C@H](O)[C@@H]2O gave an inhibition of 40% (SLC6A2; ligand displacement, radioligand; 10 µM).
With NC/C(=C\F)COc1cccc(Cn2c(=S)[nH]c(=O)c3[nH]cnc32)c1 the inhibition was 3.22% (Diamine oxidase [copper-containing] (AOC1, Homo sapiens, UniProt P19801); enzyme activity, inhibitor; 37 nM).
